Measured values of several laboratories.
Parts stem from different laboratories: compare values within a part only. Positions count from the first letter of the parent shown.

Series 1
Target: Histone acetyltransferase KAT6A, both winged helices, GST fusion (KAT6A, Homo sapiens, UniProt Q92794, residues 1-181)
Technique: protein binding microarray
Molecule type: double-stranded DNA, one strand shown
Sample: in vitro
Concentration: not given
Setting: 8-mer, flanks averaged, mean of 2 arrays, mostly near background
Relative to: not given
Reading: higher = stronger binding
Measurement: E-score
Construct (chain): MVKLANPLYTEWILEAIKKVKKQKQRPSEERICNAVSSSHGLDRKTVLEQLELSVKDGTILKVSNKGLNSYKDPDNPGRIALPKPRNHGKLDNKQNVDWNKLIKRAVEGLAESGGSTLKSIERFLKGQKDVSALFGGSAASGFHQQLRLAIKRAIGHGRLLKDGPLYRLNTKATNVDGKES
AACTCTCG: -0.0513
CTACTTCC: -0.106
CACTCGAA: -0.203
ACTTTACA: 0.081
CTAATACA: -0.0642
TAACAATA: -0.0192
AACCCCCG: 0.138
CACCTATA: -0.0577
ACCCCGTA: 0.189
CCTGTCTC: -0.206
GCTTGGAA: 0.0222
CTCTGCCC: -0.176
GCCGTGCC: 0.244
CTCAGGTA: -0.269
TAAACTTA: -0.119
GCTTGAGA: -0.156

Series 2
Target: Interferon regulatory factor 7, full length, phosphomimetic (IRF7, Homo sapiens, UniProt Q92985, residues 1-503, S101K/S471D/S472D/S475D/S476D/S477D/S483D/S484D/S487D)
Technique: protein-binding microarray
Molecule type: double-stranded DNA, one strand shown
Sample: in vitro
Concentration: 250 nM
Setting: 60-bp whole probe
Added: salmon DNA 0.4 mg/ml
Relative to: random background probes
Reading: higher = stronger binding
Measurement: log fluorescence
Shared flanks, not repeated: GCCTAGCAC … GTCTTGATTCGCTTGACGCTGCTG
Construct (chain): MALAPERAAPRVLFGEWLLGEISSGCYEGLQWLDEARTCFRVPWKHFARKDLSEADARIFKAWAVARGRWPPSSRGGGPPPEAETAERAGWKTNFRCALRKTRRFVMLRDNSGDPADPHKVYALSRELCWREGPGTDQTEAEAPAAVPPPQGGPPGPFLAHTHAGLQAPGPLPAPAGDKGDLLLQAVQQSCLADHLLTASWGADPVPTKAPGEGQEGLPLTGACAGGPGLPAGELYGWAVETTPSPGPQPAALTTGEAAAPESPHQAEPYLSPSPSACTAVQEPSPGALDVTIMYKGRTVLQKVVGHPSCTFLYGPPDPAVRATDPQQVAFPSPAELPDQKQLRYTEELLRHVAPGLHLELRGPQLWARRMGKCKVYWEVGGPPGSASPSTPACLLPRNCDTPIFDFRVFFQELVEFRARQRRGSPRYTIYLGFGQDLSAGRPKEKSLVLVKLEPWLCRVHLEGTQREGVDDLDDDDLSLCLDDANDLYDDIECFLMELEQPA
GACGGTTTAGGTCTCGGGACGTGCTAG: 0.42 z-score
GACGGTTTGCTTATCCTGACGTGCTAG: -0.00126 z-score
GATGAAGATGTAGAACTTTTGTGCTAG: -0.706 z-score
TTAGATTTCAGACTGGATAAGTGCTAG: 0.473 z-score
GCCGATATCGGGTTTCGAGACGTGCTA: 3.38 z-score
GACGATCTCAGTCTGGAGACGTGCTAG: -0.357 z-score
GACGGTTTGCTTCTCCTGACGTGCTAG: 0.209 z-score
GACTGTCTCGGACTGGGGACGTGCTAG: 0.0874 z-score
GACGATATCAGTATCGGGACGTGCTAG: -0.0204 z-score
GACGATTCCATTTTCGAGACGTGCTAG: 1.55 z-score
TTAGATATCAGTCTCGAGTAGTGCTAG: 0.36 z-score
TTAGGTGCCGGTTTCGGTTAGTGCTAG: 7.18 z-score
TTCTTTTCCATTTTGTGTTTGTGCTAG: 3.28 z-score
ATTTTAATCACATATACACTGGTGCTA: 0.797 z-score
TCACCTCTTTCTCTGCTACTGTGCTAG: 1.17 z-score
GACGGTATCGACTATCGTGACGTGCTA: -0.218 z-score
TCAATTTTCTGAATGTCACTGTGCTAG: 1.02 z-score
GACGAACTGAGTTACGAGACGTGCTAG: -0.198 z-score
TCTACTTCTCTTTTGGCTTTGTGCTAG: 1.43 z-score
GACGAACTGAGGCTCGAGACGTGCTAG: 0.231 z-score
AATCTTTTCACTTTCTTTAAGTGCTAG: 1.82 z-score
TTAGGTTTCGGTCTCGGCTAGTGCTAG: 7.33 z-score
TCAATTCTCTGCTTCTGACTGTGCTAG: 0.854 z-score
CTAGAACTGGGGTATCGATTAGTGCTA: 0.185 z-score
TGTGTTTTCACTTTTCCTACGTGCTAG: 2.8 z-score

Series 3
Target: CCNB3, cyclin fold, Cln2 fusion (human)
Technique: yeast growth competition, sequencing
Sample: yeast
Setting: strong parent motif
Relative to: not given
Reading: higher = stronger binding
Measurement: normalised enrichment score
Starting sequence: PKN2 docking peptide (human); VSAVRKLDFSDTM
VSAVRKLNFSDTM [D8N]: 1.48
VSPVRKLDFSDTM [A3P]: 0.78
VSRVRKLDFSDTM [A3R]: 0.193
VSAVRKLDFSCTM [D11C]: 2.1
VSAVRKLDRSDTM [F9R]: 0.0908
VSAVRKLDFSDSM [T12S]: 1.62
VSAARKLDFSDTM [V4A]: 1.21
VWAVRKLDFSDTM [S2W]: 1.59
VSAVRNLDFSDTM [K6N]: 0.243
VSAVRKLDFYDTM [S10Y]: 1.03
VSAVRVLDFSDTM [K6V]: 1.57
VSEVRKLDFSDTM [A3E]: 0.353
VSAVRKLFFSDTM [D8F]: 1.43
VSAVRKLDFRDTM [S10R]: 1.05
VSAVRKNDFSDTM [L7N]: -0.0667
VQAVRKLDFSDTM [S2Q]: 1.5
VSALRKLDFSDTM [V4L]: 0.607
VSAVRKLDKSDTM [F9K]: -0.124
VSAVRKLDFSQTM [D11Q]: 2.03
VSAVDKLDFSDTM [R5D]: 0.194
VSAVGKLDFSDTM [R5G]: -0.182
VSAVRKLDFDDTM [S10D]: 1.86
VSAVRKMDFSDTM [L7M]: 0.0759
VSDVRKLDFSDTM [A3D]: -0.169
VSAVFKLDFSDTM [R5F]: 0.425

Series 4
Target: Fragile X messenger ribonucleoprotein 1, C-terminal low-complexity region (Fmr1, Mus musculus, UniProt P35922)
Technique: RNA Bind-n-Seq
Molecule type: RNA
Sample: in vitro
Concentration: 200 nM
Setting: whole 134-nt RNA, ends assumed
Added: 150 mM KCl
Relative to: input library
Reading: higher = stronger binding
Measurement: log2 enrichment
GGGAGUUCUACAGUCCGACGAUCUCAAGUCCUGUGCUACACAUCGUAUGUACCGAAUCGGUUUUUGGAAAGGUUUGGAAAGUAUUAUGUUACGCCGUUCGGAUCUGCACUUCCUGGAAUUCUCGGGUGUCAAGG: -0.94
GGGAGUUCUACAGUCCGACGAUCUCAAGUCCUGUGCUACACAUCGUAUGUACCGAAUCGGCCGGGCCGGGGCCGGGGAAAGUAUUAUGUUACGCCGUUCGGAUCUGCACUUCCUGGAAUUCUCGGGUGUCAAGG: -0.0542
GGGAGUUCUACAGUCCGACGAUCAAGUCCUGUGCUACACAUCGUAUGUACCGAAUCGGGGCCCCGGCCCCGGGCCCCGGAAAGUAUUAUGUUACGCCGUUCGGAUCUGCACUUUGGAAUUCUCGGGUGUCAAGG: -0.67
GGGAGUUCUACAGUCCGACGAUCCAAGUCCUGUGCUACACAUCGUAUGUACCGAAUCGGAAAAAAAGGUUUUUGGAGGAAAGUAUUAUGUUACGCCGUUCGGAUCUGCACUUCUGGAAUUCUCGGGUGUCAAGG: -0.956
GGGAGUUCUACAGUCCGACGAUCUGUGCUACACAUCGUAUGUACCGAAUCGGGGCCCCCCCGGGCCCCCCCGGGCCCCCCCGGGGAAAGUAUUAUGUUACGCCGUUCGGAUCUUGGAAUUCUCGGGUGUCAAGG: -1.83
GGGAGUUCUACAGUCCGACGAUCGUCCUGUGCUACACAUCGUAUGUACCGAAUCGGGGAAAAAGGGGAAAGGGGUUUGGGGAAAGUAUUAUGUUACGCCGUUCGGAUCUGCACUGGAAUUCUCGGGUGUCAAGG: 0.397
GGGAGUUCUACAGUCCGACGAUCAAGUCCUGUGCUACACAUCGUAUGUACCGAAUCGGUGGAAAAAAAGGUUUUUUUGGAAAGUAUUAUGUUACGCCGUUCGGAUCUGCACUUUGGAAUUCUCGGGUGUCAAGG: -1.13
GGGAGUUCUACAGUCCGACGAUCCCUGUGCUACACAUCGUAUGUACCGAAUCGGGUUUUUUUGGGUUUUUUUGGUUUUUUUGGGAAAGUAUUAUGUUACGCCGUUCGGAUCUGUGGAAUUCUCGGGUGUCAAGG: -0.773
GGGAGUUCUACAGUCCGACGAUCCUGUGCUACACAUCGUAUGUACCGAAUCGGUUUUUUUGGGGUUUUUUUGGGUUUUUUUGGGAAAGUAUUAUGUUACGCCGUUCGGAUCUGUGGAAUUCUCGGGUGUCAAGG: -0.762
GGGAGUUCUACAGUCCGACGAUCUCAAGUCCUGUGCUACACAUCGUAUGUACCGAAUCGGGUGGGAAAGGGUUUGGGAAAGUAUUAUGUUACGCCGUUCGGAUCUGCACUUCCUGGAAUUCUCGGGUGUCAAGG: 1.08
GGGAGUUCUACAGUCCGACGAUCUGUGCUACACAUCGUAUGUACCGAAUCGGGGUUUUUGGGGUUUUUUUGGGGUUUUUUUGGGGAAAGUAUUAUGUUACGCCGUUCGGAUCUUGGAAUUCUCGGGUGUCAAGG: 0.535
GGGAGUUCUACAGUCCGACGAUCUUGGGCUGCCCAUCACCGUGGCCCAUGUGGAUGGCCAAACCCACAUGUUAUUUGGCUCUGACCGGAUGGAGCUGCUGGCGCACCUGCUGGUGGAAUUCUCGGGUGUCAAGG: -1.53
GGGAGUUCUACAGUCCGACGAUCAAGUCCUGUGCUACACAUCGUAUGUACCGAAUCGGGGAGGGGAAAAAGGGGAGGGGAAAGUAUUAUGUUACGCCGUUCGGAUCUGCACUUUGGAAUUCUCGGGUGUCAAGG: 0.915
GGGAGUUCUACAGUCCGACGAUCAGUCCUGUGCUACACAUCGUAUGUACCGAAUCGGGGAAAAGGAAAAGGGAAAAGGGGAAAGUAUUAUGUUACGCCGUUCGGAUCUGCACUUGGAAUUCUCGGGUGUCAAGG: 0.0562

Series 5
Target: ABI1, truncated, D143A, DHFR fusion (Arabidopsis thaliana, UniProt P49597)
Technique: DHFR PCA, dose-response
Sample: yeast
Setting: Hill fit, not affinity, not high confidence
Added: (+)-ABA, dose series
Reading: lower = more sensitive
Measurement: ABA EC50
Starting sequence: PYL1, truncated, DHFR fusion (Arabidopsis thaliana, UniProt Q8VZS8); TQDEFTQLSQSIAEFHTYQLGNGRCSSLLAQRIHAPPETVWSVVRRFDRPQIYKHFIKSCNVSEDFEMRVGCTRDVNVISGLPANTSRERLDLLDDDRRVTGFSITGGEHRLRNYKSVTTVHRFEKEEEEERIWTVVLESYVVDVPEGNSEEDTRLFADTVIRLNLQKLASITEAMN
L138E: 898 µM
F47T: 41 µM
V137F: 18.9 µM
F103A: 126 µM
S117F: 3.32 µM
L138G: 2.67 µM
I57K: 24 µM
D48H: 86.4 µM
P83N: 397 µM
S140H: 1100 µM
G108W: 1880 µM
N165I: 0.191 µM
L169W: 182 µM
V40S: 940 µM
V137G: 13.6 µM
H16M: 691 µM
K168P: 2.57 µM
L112N: 13.1 µM
A170Y: 777 µM
Y115D: 0.0789 µM
I33H: 554 µM
S140L: 83.7 µM
V44W: 704 µM
R46F: 200 µM
L91Y: 8.53 µM
